Measurements of several laboratories.
A part holds a random share of what one study measured. Changes are numbered by the printed parent chain.

Block 1 — target: CCNF, cyclin fold, Cln2 fusion (human); technique: yeast growth competition, sequencing; medium: yeast; setting: strong parent motif; baseline: not given; reading: higher = stronger binding
Starting sequence: BORA docking peptide (human); SSLRRKLFLDGNG
| Substitution | normalised enrichment score |
| --- | --- |
| R5A | 1.01 |
| F8A | 2.24 |
| L9F | 8.21 |
| K6A | 5.21 |
| R5K L9F | 3.76 |
| G11A | 4.98 |
| L7A | 1.27 |
| R4A | 4.2 |

Block 2 — technique: DHFR PCA, deep sequencing; medium: yeast; added: (+)-ABA 4.8 µM; baseline: wild-type fitted maximum; reading: higher = stronger binding
Target: ABI1, truncated, D143A, DHFR fusion (Arabidopsis thaliana)
Setting: methotrexate growth selection, single substitutions
Starting sequence: PYL1, truncated, DHFR fusion (Arabidopsis thaliana); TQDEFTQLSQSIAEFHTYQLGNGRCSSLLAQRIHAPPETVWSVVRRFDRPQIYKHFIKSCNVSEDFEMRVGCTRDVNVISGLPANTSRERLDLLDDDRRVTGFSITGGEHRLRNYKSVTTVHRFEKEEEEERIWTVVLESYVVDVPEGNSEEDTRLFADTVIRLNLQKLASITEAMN
| Substitution | relative binding score [%] |
| --- | --- |
| R163E | 7.18 |
| T154C | 60.6 |
| A170S | 31.8 |
| Y18A | 32.2 |
| E151H | 62.1 |
| H34A | 77.2 |
| V136Q | 10.2 |
| T39V | 77.7 |
| L93F | 52.6 |
| S104M | 4.44 |
| P50V | 18.2 |
| E4R | 42.3 |
| I57F | -6.89 |
| S150C | 46.3 |
| D96Y | 8.62 |
| E139P | 4.19 |
| H122A | -6.64 |

Block 3 — target: ATF5, bZIP domain (human); technique: DHFR protein complementation; medium: yeast; baseline: wild-type JUN-FOS pair; reading: higher = stronger binding
Setting: single substitutions, most at no-binding floor
Starting sequence: JUN, bZIP domain (human); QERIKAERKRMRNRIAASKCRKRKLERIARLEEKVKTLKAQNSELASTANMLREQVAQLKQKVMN; partner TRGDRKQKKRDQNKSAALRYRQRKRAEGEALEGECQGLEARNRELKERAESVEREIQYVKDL
| Substitution | binding fitness [natural log] |
| --- | --- |
| L59H | -1.54 |
| L31R | -1.53 |
| V56Y | -1.51 |
| S43C | -1.49 |
| L52I | -1.13 |
| S43T | -1.38 |
| E33W | -1.5 |
| E32K | -1.45 |
| L52G | -1.52 |
| A57P | -1.51 |
| E44Y | -1.39 |
| A40G | -1.47 |
| Q55H | -1.19 |
| E44Q | -1.59 |
| R30F | -1.45 |
| E54T | -1.3 |
| M51N | -1.04 |
| E32Y | -1.49 |
| Q41G | -1.45 |
| V56D | -1.56 |
| E32I | -1.33 |

Block 4 — technique: RNA Bind-n-Seq; molecule type: RNA; medium: in vitro; tested at: 200 nM; setting: whole 134-nt RNA, ends assumed; added: 150 mM LiCl; baseline: input library; reading: higher = stronger binding; library: 7-deaza-guanosine replaces G
Target: Fragile X messenger ribonucleoprotein 1, C-terminal low-complexity region (Fmr1, Mus musculus, UniProt P35922)
| Sequence | log2 enrichment |
| --- | --- |
| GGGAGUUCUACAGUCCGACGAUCGCAGGAAGUAAAAACAAAUGGAAAUGCUUCGGAUAGUGGCAGUGGUGGGGGUUGCUAAGGAAAGGGUGGGAUGGGAGUGGGUAAAGAGUUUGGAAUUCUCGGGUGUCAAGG | 1.39 |
| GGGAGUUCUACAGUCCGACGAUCUAACUUUAGAGGAGGAUCUGAUGGAUAUGGCAGGGGACGUGGAUUUGGGGAUGGCUAUAAUGGGUAUGGAGGAGGACCUGGAGGUGGCAAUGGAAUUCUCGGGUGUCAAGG | 0.462 |
| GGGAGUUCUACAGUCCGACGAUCUCCUCAAGUCCUGUGCUACACAUCGUAUGUACCGAAUCGGGAGGAGGAGGGGAAAGUAUUAUGUUACGCCGUUCGGAUCUGCACUUCCAGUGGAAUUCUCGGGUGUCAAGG | -0.918 |
| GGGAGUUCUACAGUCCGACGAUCGCAGGAAGUAAAAACAAAUGGAAAUGUUUCGGAUAGUGGCAGGGGUGGGGGUUGCUAAGGAAAGGGUGGGAUGGGAGUGGGUAAAGAGUUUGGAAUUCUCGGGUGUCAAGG | 1.6 |
| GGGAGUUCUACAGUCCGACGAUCCACAGACAACACACACCCACACAGACACAGAGGGAAGGGGUUGGGAUGGGGACAGGGUGCACAGCAGGGCGGGGUAGGACCCCAGCCCCUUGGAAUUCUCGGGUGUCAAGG | 0.103 |
| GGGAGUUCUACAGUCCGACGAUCAGUCCUGUGCUACACAUCGUAUGUACCGAAUCAAAUUUUUUUAAAUUUAAAUUUAAAAAAGUAUUAUGUUACGCCGUUCGGAUCUGCACUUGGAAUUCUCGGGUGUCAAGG | -3.17 |
| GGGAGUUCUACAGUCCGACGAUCACCCUGCAGGUGGGCAUCUUUGGGAAGUGGGGCAAGGGGGGGAUAGGGAGGGGGGUAACACUUUGGGAACAGGUGGUCCCAGGUCGUUUCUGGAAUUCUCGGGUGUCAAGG | 0.974 |
| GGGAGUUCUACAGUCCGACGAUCUCAAGUCCUGUGCUACACAUCGUAUGUACCGAAUCGGGGAAAGGAAAGGAAAGGGAAAGUAUUAUGUUACGCCGUUCGGAUCUGCACUUCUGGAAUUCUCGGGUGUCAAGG | -0.582 |

Some of these lines once more (block 4):
| Sequence | log2 enrichment |
| --- | --- |
| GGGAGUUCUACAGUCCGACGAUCUAACUUUAGAGGAGGAUCUGAUGGAUAUGGCAGGGGACGUGGAUUUGGGGAUGGCUAUAAUGGGUAUGGAGGAGGACCUGGAGGUGGCAAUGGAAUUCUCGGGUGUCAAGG | 0.462 |
| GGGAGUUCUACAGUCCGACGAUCUCCUCAAGUCCUGUGCUACACAUCGUAUGUACCGAAUCGGGAGGAGGAGGGGAAAGUAUUAUGUUACGCCGUUCGGAUCUGCACUUCCAGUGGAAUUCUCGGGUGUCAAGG | -0.918 |
| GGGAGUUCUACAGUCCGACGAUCGCAGGAAGUAAAAACAAAUGGAAAUGUUUCGGAUAGUGGCAGGGGUGGGGGUUGCUAAGGAAAGGGUGGGAUGGGAGUGGGUAAAGAGUUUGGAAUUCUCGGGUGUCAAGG | 1.6 |
| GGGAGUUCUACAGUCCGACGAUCCACAGACAACACACACCCACACAGACACAGAGGGAAGGGGUUGGGAUGGGGACAGGGUGCACAGCAGGGCGGGGUAGGACCCCAGCCCCUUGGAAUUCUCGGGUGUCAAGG | 0.103 |
